Measured values of several laboratories.
Every numbered part comes from another study and shows a few of its results, in no order.

Study 1
Target: Sal-like protein 4, full length isoform A (SALL4, Homo sapiens, UniProt Q9UJQ4, residues 1-1053)
Chain of UniProt Q9UJQ4 (whole entry, looked up): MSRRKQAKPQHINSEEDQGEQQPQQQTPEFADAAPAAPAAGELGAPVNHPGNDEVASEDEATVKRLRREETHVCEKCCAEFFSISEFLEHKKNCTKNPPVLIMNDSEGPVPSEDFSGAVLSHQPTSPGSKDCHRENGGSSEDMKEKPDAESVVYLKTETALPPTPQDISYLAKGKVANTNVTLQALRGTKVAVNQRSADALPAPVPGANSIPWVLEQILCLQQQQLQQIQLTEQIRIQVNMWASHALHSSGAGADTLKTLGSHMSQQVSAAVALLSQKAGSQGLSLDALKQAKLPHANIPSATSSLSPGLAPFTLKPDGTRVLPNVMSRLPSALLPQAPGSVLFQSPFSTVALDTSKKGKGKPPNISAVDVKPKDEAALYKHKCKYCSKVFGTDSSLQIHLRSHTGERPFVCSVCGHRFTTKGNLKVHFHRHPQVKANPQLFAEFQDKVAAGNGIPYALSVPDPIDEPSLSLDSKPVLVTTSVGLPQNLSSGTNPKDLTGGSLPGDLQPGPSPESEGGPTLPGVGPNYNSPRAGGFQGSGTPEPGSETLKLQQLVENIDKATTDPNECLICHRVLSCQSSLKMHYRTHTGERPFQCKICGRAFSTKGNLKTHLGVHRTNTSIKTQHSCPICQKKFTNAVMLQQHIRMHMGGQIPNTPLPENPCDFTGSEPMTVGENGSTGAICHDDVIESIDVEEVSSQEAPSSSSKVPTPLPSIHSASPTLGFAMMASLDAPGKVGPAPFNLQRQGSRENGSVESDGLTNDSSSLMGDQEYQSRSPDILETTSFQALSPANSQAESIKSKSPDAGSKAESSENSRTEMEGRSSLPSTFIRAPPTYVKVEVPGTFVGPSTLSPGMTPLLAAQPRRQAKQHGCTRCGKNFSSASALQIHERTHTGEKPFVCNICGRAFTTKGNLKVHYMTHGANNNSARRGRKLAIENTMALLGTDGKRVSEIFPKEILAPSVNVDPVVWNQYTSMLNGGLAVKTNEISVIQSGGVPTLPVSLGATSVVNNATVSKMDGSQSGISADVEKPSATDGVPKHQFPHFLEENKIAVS
Technique: universal PBM
Form: double-stranded DNA, one strand shown
Medium: in vitro
Tested at: 600 nM
Notes: 8-mer, flanks averaged, mean of replicates
Reading: higher = stronger binding
Strand | E-score
CCATCATC | 0.0861
ATCGACAA | 0.0741
TGTAAAAA | 0.326
GAGACGCC | -0.252
GACAGGGA | -0.215
CTATTCTA | 0.186

Study 2
Target: Interferon regulatory factor 7, full length, phosphomimetic (IRF7, Homo sapiens, UniProt Q92985, residues 1-503, S471D/S472D/S475D/S476D/S477D/S483D/S484D/S487D)
Technique: protein-binding microarray
Form: double-stranded DNA, one strand shown
Medium: in vitro
Tested at: 2200 nM top
Notes: 60-bp whole probe
Added: salmon DNA 0.4 mg/ml
Reference: random background probes
Reading: higher = stronger binding
Constant ends, left off below: GCCTAGCAC … GTCTTGATTCGCTTGACGCTGCTG
Construct (chain): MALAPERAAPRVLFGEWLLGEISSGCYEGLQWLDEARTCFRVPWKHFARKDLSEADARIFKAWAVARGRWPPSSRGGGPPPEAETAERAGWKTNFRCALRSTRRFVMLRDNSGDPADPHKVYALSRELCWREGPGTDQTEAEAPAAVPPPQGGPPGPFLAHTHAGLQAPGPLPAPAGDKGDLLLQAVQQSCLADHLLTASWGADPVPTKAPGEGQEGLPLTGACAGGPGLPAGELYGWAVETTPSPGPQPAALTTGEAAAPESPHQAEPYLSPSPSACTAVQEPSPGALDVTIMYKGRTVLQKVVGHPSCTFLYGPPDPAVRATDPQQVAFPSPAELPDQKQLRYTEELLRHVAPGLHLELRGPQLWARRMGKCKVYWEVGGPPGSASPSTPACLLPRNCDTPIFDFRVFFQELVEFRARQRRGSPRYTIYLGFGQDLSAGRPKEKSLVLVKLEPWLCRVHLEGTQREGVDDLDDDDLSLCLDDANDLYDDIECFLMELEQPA
Strand | fitted relative affinity [z-score]
TTAGAATTGGGGTTTCGATTAGTGCTA | 2.58
TCTTCCTTTACTTTCTTTTTGTGCTAG | 6.18
GACGAACTGGGCTATCGAGACGTGCTA | -0.576
GACGGTTTCGGTATCTGGACGTGCTAG | 7.67
ACTCCTATCCAAGTTCCCCTGGTGCTA | 1.33
GACGATTTCAGTTTCGAGATGTGCTAG | 6.05

Study 3
Target: Histone acetyltransferase KAT6A, both winged helices, GST fusion (KAT6A, Homo sapiens, UniProt Q92794, residues 1-181)
Technique: protein binding microarray
Form: double-stranded DNA, one strand shown
Medium: in vitro
Tested at: not given
Notes: 8-mer, flanks averaged, mean of 2 arrays, mostly near background
Reference: not given
Reading: higher = stronger binding
Residues (chain): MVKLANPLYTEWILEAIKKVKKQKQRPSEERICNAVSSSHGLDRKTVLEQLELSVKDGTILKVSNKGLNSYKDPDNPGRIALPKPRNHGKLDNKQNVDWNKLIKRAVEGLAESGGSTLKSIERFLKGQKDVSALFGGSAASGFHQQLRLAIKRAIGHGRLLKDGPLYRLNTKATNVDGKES
Strand | E-score
GATCCTAA | -0.092
ACTTTTGC | -0.0708
CATACGTA | 0.0928
GATAATGA | -0.088
CTCACTTC | -0.0217
ATAATTGC | 0.122

Mixed results
Molecule | target | test | system | setting | scale | endpoint | value
PhoQ, residues 284 288 289 292 302 303 SSYNSA | PhoP, residues 12 14 15 18 19 AGCRL (Escherichia coli, UniProt P23836) | Sort-seq, refers to: YFP reporter | E. coli | PhoQ-PhoP variant library, added: 10 µM Mg2+ | reference: high Mg2+ state, higher = stronger signaling | fold induction | 6.61

For quick reference, copied from above (study 3):
Strand | E-score
CTCACTTC | -0.0217
GATCCTAA | -0.092
ATAATTGC | 0.122
